{"data": "Measurements from different studies", "KDR": "Vascular endothelial growth factor receptor 2 (KDR, Homo sapiens, UniProt P35968)", "KCNN4": "Intermediate conductance calcium-activated potassium channel protein 4 (KCNN4, Homo sapiens, UniProt O15554)", "PDGFRB": "Platelet-derived growth factor receptor beta (PDGFRB, Homo sapiens, UniProt P09619)", "TYK2": "Non-receptor tyrosine-protein kinase TYK2 (TYK2, Homo sapiens, UniProt P29597)", "CTSL": "Procathepsin L (CTSL, Homo sapiens, UniProt P07711)", "note": "Compare with care: the assays were run in different laboratories. Several values in a cell are separate wells, animals, samples, runs or records. ± marks the error that the study gave."}
{"SMILES": "CN[C@H](CC(C)C)C(=O)N[C@H]1C(=O)N[C@@H](CC(N)=O)C(=O)N[C@H]2C(=O)N[C@H]3C(=O)N[C@H](C(=O)N[C@H](C(=O)O)c4cc(O)cc(O)c4-c4cc3ccc4O)[C@H](O)c3ccc(c(Cl)c3)Oc3cc2cc(c3O[C@@H]2O[C@H](CO)[C@@H](O)[C@H](O)[C@H]2O[C@H]2C[C@](C)(NCc3ccc(C(=O)OCCCCCCN(Cc4ccccn4)Cc4ccccn4)cc3)[C@H](O)[C@H](C)O2)Oc2ccc(cc2Cl)[C@H]1O", "target": "metallo-beta-lactamase L1", "test": "enzyme activity, inhibitor", "setting": "absorbance and fluorescence", "IC50": "10.2 to 11 µM"}
{"SMILES": "CCNc1nc(N)c(C(=O)c2ccc(Cl)s2)s1", "target": "GSK3 (Trypanosoma brucei, UniProt Q388M1)", "test": "enzyme activity, inhibitor, radiometric", "IC50": "0.4 µM"}
{"SMILES": "COc1cc2nccc(Oc3ccc4sc(NCC(C)C)nc4c3)c2cc1C(N)=O", "target": "KDR", "IC50": "> 10 µM"}
{"SMILES": "Cc1cc(NC(c2ccccc2)(c2ccccc2)c2ccccc2Cl)no1", "target": "KCNN4", "test": "ion current, inhibitor, patch clamp", "IC50": "1 µM"}
{"SMILES": "CCOc1cncc(-c2ccc(NC(=O)C3(c4ccnc(NS(=O)(=O)C5CC5)n4)CCOCC3)nc2)n1", "target": "CTP synthase 2 (Canis lupus familiaris, UniProt A0A8I3QAX6)", "test": "enzyme activity, RapidFire mass spectrometry", "system": "dog", "setting": "geometric mean", "IC50": "21.8 µM"}
{"SMILES": "CCCCCCCCCCCCCC(=S)NCCCC[C@H](NC(=O)[C@H](CCCNC(=N)N)NC(=O)[C@H](C)N)C(=O)N[C@@H](CO)C(=O)N[C@H](C(=O)O)[C@@H](C)O", "target": "SIRT6 (Homo sapiens, UniProt Q8N6T7)", "test": "enzyme activity, inhibitor", "IC50": "8.2 µM"}
{"SMILES": "COc1cc2nccc(Oc3ccc(NC(=S)NCCN(C)C)c(Cl)c3)c2cc1C(N)=O", "target": "PDGFRB", "IC50": "0.0628 µM"}
{"SMILES": "NC1CCC(Nc2nccc(-c3cccnc3Oc3ccc(NS(=O)(=O)c4ccccc4Cl)c4ccccc34)n2)CC1 (stereo not drawn)", "target": "Serine/threonine-protein kinase/endoribonuclease IRE1, RNase domain (ERN1, Homo sapiens, UniProt O75460)", "test": "RNase activity, inhibitor", "setting": "together with: XBP1 mini-substrate", "IC50": "0.022 ± 0.009 µM"}
{"SMILES": "COc1cc2nccc(Oc3ccc(NC(=S)NCCc4ccccc4)c(Cl)c3)c2cc1C(N)=O", "target": "KDR", "IC50": "0.255 µM"}
{"SMILES": "CC1(C)C2CC3C(c4ccccc4)c4c(O)c(C=O)c(O)c(C=O)c4OC3(C)C1C2 (single isomer, unassigned; (+))", "target": "PFKL (Homo sapiens, UniProt P17858, K681R)", "test": "enzyme activity, inhibitor", "IC50": "6.8 µM"}
{"SMILES": "COCC1CN(C2CCN(c3cc(OC)c(Nc4ncc(Br)c(Nc5ccc6c(c5P(C)(C)=O)OCCO6)n4)cc3C)CC2)C1", "target": "EGFR (Homo sapiens, UniProt P00533, C797S/del746-750)", "test": "kinase activity, TR-FRET", "setting": "together with: ATP at Km", "IC50": "< 0.0015 µM"}
{"SMILES": "O=S(=O)(c1ccccc1)n1cnc2ncncc21", "target": "PARP2 (Homo sapiens, UniProt Q9UGN5)", "test": "enzyme activity, inhibitor", "IC50": "0.274 µM"}
{"SMILES": "O=c1c2ccccc2on1-c1ccccc1", "target": "HDAC5 (Homo sapiens, UniProt Q9UQL6)", "test": "enzyme activity, inhibitor", "IC50": "> 10 µM"}
{"SMILES": "O=C(O[C@H](CO)C(F)(F)F)N1C[C@@H]2[C@H](C1)[C@H]2c1ccn(-c2ccc(F)nc2)n1", "target": "Mgll (Mus musculus, UniProt O35678)", "test": "enzyme activity, ABPP with FP-rhodamine", "system": "mouse brain lysate", "setting": "30 min preincubation, 37 °C", "IC50": "0.0085 µM"}
{"SMILES": "O=C(O)CCC(=O)NNC(=O)c1ccccn1", "target": "Egl nine homolog 1 (EGLN1, Homo sapiens, UniProt Q9GZT9)", "test": "inhibitor, AlphaScreen", "setting": "bimodal curve, rough estimate, together with: 2 µM 2-oxoglutarate", "IC50": "> 300 µM"}
{"SMILES": "COc1ccc(C2Sc3ccccc3NC3=C2C(=O)c2ccccc23)cc1 (racemic)", "target": "Type II NADH dehydrogenase (Plasmodium falciparum, UniProt Q8I302)", "test": "enzyme activity, inhibitor, fluorescence NAD+ quantitation", "system": "recombinant enzyme", "IC50": "> 20 µM"}
{"SMILES": "COc1cc2nccc(Oc3ccc(NC(=S)NC4CC4)c(Cl)c3)c2cc1-c1ncco1", "target": "PDGFRB", "IC50": "0.136 µM"}
{"SMILES": "O=C(N[C@@H](Cc1coc2ccccc12)B(O)O)[C@@H]1C[C@H]2CC[C@@H]1O2", "target": "PSMB6/PSMB7 (Homo sapiens, UniProt P28072+Q99436)", "test": "β1 enzyme activity, inhibitor", "system": "human constitutive proteasome", "setting": "2 h preincubation, together with: Ac-nLPnLD-AMC", "IC50": "> 30 µM"}
{"SMILES": "C=CC1C(OC2OC(CO)C(O)C(O)C2O)OC=C(C(=O)OC)C1CC1CC(=O)CC(CC(=O)CCc2ccc(O)cc2)O1 (stereo not drawn)", "target": "MAL12 (Saccharomyces cerevisiae S288c, UniProt P53341)", "test": "enzyme activity, inhibitor, absorbance", "IC50": "> 100 µM"}
{"SMILES": "C=CC(=O)N1CCC[C@@H](n2nc(-c3ccccc3)c3c(N)ncnc32)C1", "target": "EGFR (Homo sapiens, UniProt P00533)", "test": "enzyme activity, inhibitor", "setting": "with preincubation", "IC50": "0.136 µM"}
{"SMILES": "C=CC(=O)Nc1cc(Nc2nccc(-c3cn(C)c4ccccc34)n2)c(OCC(F)(F)F)nc1N(C)CCN(C)C", "target": "Cytochrome P450 2B6 (CYP2B6, Homo sapiens, UniProt P20813)", "test": "enzyme activity, inhibitor", "system": "human, liver microsomes", "IC50": "> 100 µM"}
{"SMILES": "CC1=C(C2=C(C)C(=O)c3c(cc(O)c(O)c3Cc3ccccc3)C2=O)C(=O)c2cc(O)c(O)c(Cc3ccccc3)c2C1=O (racemic)", "target": "Bcl-2-related protein A1 (Homo sapiens, UniProt Q16548)", "test": "ligand displacement, FP", "IC50": "0.144 µM"}
{"SMILES": "COc1ccc(-c2cc(C(F)(F)F)nc(S(=O)(=O)NCC(=O)Nc3ccc(C)cc3)n2)cc1", "target": "WRN (Homo sapiens, UniProt Q14191)", "test": "ATPase activity, inhibitor, ADP-Glo", "setting": "together with: ATP 60 µM", "IC50": "0.881 µM"}
{"SMILES": "C=CC(=O)Nc1cccc(Cn2ncc3cnc(Nc4cnn(CCOC)c4)nc32)c1", "target": "TYK2", "test": "enzyme activity, inhibitor, TR-FRET", "IC50": "> 10 µM"}
{"SMILES": "CC(C)C[C@@H]1NC(=O)[C@H]([C@@H](C)O)NC(=O)[C@H](Cc2ccccc2)NC(=O)CNC(=O)[C@H](Cc2c[nH]c3ccccc23)NC(=O)[C@H](Cc2c[nH]cn2)NC(=O)[C@H]([C@@H](C)O)NC(=O)[C@H]([C@@H](C)O)NC(=O)[C@H](C)NC(=O)C[C@@H](C(N)=O)NC1=O", "target": "MMP2 (Homo sapiens, UniProt P08253)", "test": "inhibitor", "setting": "1 h preincubation, 37 °C, together with: APMA-activated enzyme", "IC50": "10.9 µM"}
{"SMILES": "CC(C)(C)CCN(Cc1ccc(F)cc1)c1nc(C#N)nc(N2CCOCC2)n1", "target": "CTSL", "test": "enzyme activity, inhibitor, fluorescence", "IC50": "0.16 µM"}
{"SMILES": "COc1ccc(NC(=O)c2cccc(S(=O)(=O)NC3CC3)c2)cc1", "target": "Ectonucleoside triphosphate diphosphohydrolase 2 (Homo sapiens, UniProt Q9Y5L3)", "test": "enzyme activity, inhibitor, absorbance", "IC50": "46.9 µM"}
{"SMILES": "CC(C)CCN(Cc1ccncc1)c1nc(C#N)nc(N2CCOCC2)n1", "target": "CTSL", "test": "enzyme activity, inhibitor, fluorescence", "IC50": "0.041 µM"}
{"SMILES": "CCCCc1ccc(C(=O)N[C@@H](CO)C(=O)N[C@H](C(=O)N2CCC[C@H]2C(=O)N[C@@H](CC(N)=O)C(=O)NCC(=O)N[C@@H](CC(C)C)C(=O)O)[C@@H](C)OP(=O)(O)O)cc1", "target": "Serine/threonine-protein kinase PLK3, polo-box domain (PLK3, Homo sapiens, UniProt Q9H4B4)", "test": "polo-box domain binding, fluorescence polarization", "IC50": "> 600 µM"}
{"SMILES": "N#Cc1cnc2sc(C(=O)O)cc2c1N1CCc2[nH]nc(C(=O)N[C@@H](CC(=O)NCCOCCN3CCOCC3)c3cccc(Br)c3)c2C1", "target": "Interleukin-1 receptor-like 2 (IL1RL2, Homo sapiens, UniProt Q9HB29)", "test": "antagonist, SEAP reporter", "system": "HEK-Blue IL-36R", "setting": "6 h, together with: 0.01 ng/mL IL-36γ", "IC50": "6.78 µM"}
{"SMILES": "O=C(NCCC#Cc1cc(Nc2nccc(-c3ccn([C@H](CO)c4ccc(Cl)c(F)c4)c(=O)c3)n2)ccn1)OC1CC/C=C/CCC1 (stereo partly drawn)", "target": "MAPK1 (Homo sapiens, UniProt P28482)", "test": "ATF2-GFP phosphorylation, inhibitor, TR-FRET", "IC50": "0.008 µM"}
{"SMILES": "O=C(O)C1CCCNC1 (stereo not drawn)", "target": "SLC6A6 (Homo sapiens, UniProt P31641)", "test": "transporter uptake, inhibitor, radiometric", "IC50": "3580 µM"}
{"SMILES": "OC(c1ccccc1)(c1cccs1)c1cccs1", "target": "KCNN4", "test": "ion current, inhibitor, patch clamp", "IC50": "9 µM"}
{"SMILES": "Cn1c(=O)c(=O)n(C)c2cc(S(=O)(=O)NNC(=S)Nc3ccccc3)ccc21", "target": "Dipeptidyl peptidase 8 (Homo sapiens, UniProt Q6V1X1)", "test": "enzyme activity, inhibitor, fluorescence", "IC50": "> 100 µM"}
{"SMILES": "COc1cc(O)ccc1CCC(c1ccc(O)cc1)c1cc2c(c(C)c1O)OC(c1ccc(O)cc1)CC2 (mixture of isomers)", "target": "PTGES (Homo sapiens, UniProt O14684)", "test": "enzyme activity, inhibitor", "IC50": "~1 µM and 1.6 µM"}
{"SMILES": "CC(C)Oc1cc(NC(=O)[C@@H](Cc2c[nH]c3ccccc23)NC(=O)c2ccc(N)c(OCc3ccccc3)c2)ccc1C(=O)NCC(=O)O", "target": "MCL1 (Homo sapiens, UniProt Q07820)", "test": "fluorescence anisotropy competition", "setting": "pH 7.50, together with: FITC-NOXA B peptide", "IC50": "> 100 µM"}
{"SMILES": "N#C/C(=C\\c1cccc(-c2cnc3[nH]cnc3c2)c1)C(N)=O", "target": "TYK2", "test": "kinase activity, inhibitor", "setting": "up to highest tested, together with: ATP at Km", "IC50": "> 10 µM"}
{"SMILES": "Cn1c(=O)c2c(nc(OC3CCN(C(=O)C4CC4)CC3)n2Cc2ccccc2F)n(C)c1=O", "target": "ALDH1A1 (Homo sapiens, UniProt P00352)", "IC50": "0.153 ± 0.049 µM"}
{"SMILES": "COc1cc2nccc(Oc3ccc4c(c3)CCCN4C(=S)NC3CC3)c2cc1C(N)=O", "target": "PDGFRB", "IC50": "0.857 µM"}
{"SMILES": "C[C@@H]1O[C@@H](OC[C@H]2O[C@@H](Oc3c(-c4ccc(O)c(O)c4)oc4cc(O)cc(O)c4c3=O)[C@H](O[C@@H]3O[C@@H](C)[C@H](O)[C@@H](O)[C@H]3O)[C@@H](O)[C@@H]2O)[C@H](O)[C@H](O)[C@H]1O", "target": "CHRNA7 (Homo sapiens, UniProt P36544)", "test": "ion current, antagonist, two-electrode voltage clamp", "setting": "oocytes", "IC50": "71.3 µM"}
{"SMILES": "COc1cc2nccc(Oc3ccc(NC(=S)Nc4cc[nH]n4)c(Cl)c3)c2cc1C(N)=O", "target": "PDGFRB", "IC50": "0.348 µM"}
{"SMILES": "O=C(Nc1ccc(-c2nnc(-c3ccco3)o2)cc1)c1ccco1", "target": "Nucleoside transporter 1 (Plasmodium vivax, UniProt A5K8B0)", "test": "[3H]adenosine uptake", "system": "target-expressing yeast", "IC50": "0.0323 ± 0.0199 µM"}
